Published values from different studies.
Every numbered part comes from another study and shows a few of its results, in no order.

Sample 1 — cell line: A-375; concentration: 100 µM; time: 18 h
`CCN(CC)CCOC(=O)C(c1ccccc1)c1ccccc1` has a viability of 56.3%.
`COC1=C(OC)C(=O)C(C/C=C(\C)CC/C=C(\C)CC/C=C(\C)CC/C=C(\C)CC/C=C(\C)CC/C=C(\C)CC/C=C(\C)CC/C=C(\C)CC/C=C(\C)CCC=C(C)C)=C(C)C1=O` has a viability of 104%.
With `Nc1nc(=O)[nH]cc1F` the viability was 99.6%.
With `CC(C)(C)NC[C@H](O)COc1nsnc1N1CCOCC1` the viability was 99.7%.
The viability of `C[C@H]1[C@H](OC(=O)CCC(=O)O)O[C@@H]2O[C@@]3(C)CC[C@H]4[C@H](C)CC[C@@H]1[C@@]24OO3` is reported as 73.6%.
With `CCCC(C(=O)OCCN(CC)CC)(c1ccccc1)c1ccccc1` the viability was 9.14%.

Sample 2 — read-out: cell-free assay; concentration: 10 µM
Target: 5-hydroxytryptamine receptor 1D (HTR1D, Homo sapiens, UniProt P28221)
UniProt P28221, sequence (whole entry, looked up): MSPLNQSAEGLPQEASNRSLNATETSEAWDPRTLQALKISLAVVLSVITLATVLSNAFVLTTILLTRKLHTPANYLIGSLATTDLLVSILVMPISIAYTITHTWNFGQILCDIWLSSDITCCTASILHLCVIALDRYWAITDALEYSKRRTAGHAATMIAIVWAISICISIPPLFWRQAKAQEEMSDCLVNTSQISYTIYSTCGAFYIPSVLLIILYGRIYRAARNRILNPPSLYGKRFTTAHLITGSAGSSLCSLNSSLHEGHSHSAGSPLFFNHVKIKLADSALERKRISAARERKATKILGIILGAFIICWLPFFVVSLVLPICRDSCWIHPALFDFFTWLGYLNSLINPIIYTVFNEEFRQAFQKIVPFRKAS
The inhibition of `CN1CCN(c2ccnc(NCCc3ccccc3)n2)CC1` is reported as 53.2%.
`Cc1c(N2CCCC2)nc2ccc(Br)cc2c1C(=O)NC[C@H](CCC(=O)O)c1ccccc1Cl` has an inhibition of -21%.
For `COc1cc(C(=O)O)ncc1C#Cc1ccccc1NS(=O)(=O)c1cccc2c(N(C)C)ccnc12`, the inhibition was 11.4%.
`NS(=O)(=O)c1cc(NC(=O)Cc2ccccc2)ccc1Oc1cccc(Cl)c1` has an inhibition of 1.74%.
`CNC(=O)Nc1ccc2c(c1)CC[C@]21OC(=O)N(CC(=O)N(Cc2ccc(F)cc2)[C@@H](C)C(F)(F)F)C1=O` has an inhibition of 18%.

Sample 3 — read-out: enzyme activity; mode: inhibitor; concentration: 0.5 µM; relative to: control
Target: MAP kinase-interacting serine/threonine-protein kinase 1 (MKNK1, Homo sapiens, UniProt Q9BUB5)
UniProt Q9BUB5, sequence (whole entry, looked up): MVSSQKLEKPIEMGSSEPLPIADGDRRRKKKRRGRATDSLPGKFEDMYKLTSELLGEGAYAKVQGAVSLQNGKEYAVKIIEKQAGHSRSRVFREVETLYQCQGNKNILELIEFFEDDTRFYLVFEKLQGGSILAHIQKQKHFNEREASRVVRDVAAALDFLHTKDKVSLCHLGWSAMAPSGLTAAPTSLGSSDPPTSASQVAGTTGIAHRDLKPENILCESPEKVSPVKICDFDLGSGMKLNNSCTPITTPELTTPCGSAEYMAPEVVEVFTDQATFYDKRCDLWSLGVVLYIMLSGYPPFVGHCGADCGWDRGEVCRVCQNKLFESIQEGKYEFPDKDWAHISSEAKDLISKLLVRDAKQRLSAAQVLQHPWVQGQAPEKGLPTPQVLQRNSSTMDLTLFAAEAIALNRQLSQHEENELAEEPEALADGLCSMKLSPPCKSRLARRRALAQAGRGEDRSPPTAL
`COc1ccc(C(=O)Nc2sc3c(c2C(N)=O)CCCC3)cc1OC` gave a remaining activity of 98.2%.
The remaining activity of `CC(C)[C@H](CO)Nc1nc(Nc2cc(N)cc(Cl)c2)c2ncn(C(C)C)c2n1` is reported as 99.1%.
`COc1cc2nccc(Oc3ccc(NC(=S)NC(=O)c4ccccc4C)cc3)c2cc1OC` gave a remaining activity of 93.2%.
For `Cc1ccc(Nc2nccc(N(C)c3ccc4c(C)n(C)nc4c3)n2)cc1S(N)(=O)=O`, the remaining activity was 102%.
`C#Cc1cccc(Nc2ncnc3cc(OCCOC)c(OCCOC)cc23)c1` gave a remaining activity of 58.2%.
With `O=C1NC(=O)C(c2cn(CCCn3ccnc3)c3ccccc23)=C1Nc1ccccc1` the remaining activity was 99.3%.
For `Oc1ccc(-c2nc(-c3ccncc3)c(-c3ccc(F)cc3)[nH]2)cc1`, the remaining activity was 102%.
With `Cn1sc(=O)n(Cc2ccccc2)c1=O` the remaining activity was 98.6%.
`Nc1[nH]nc2nc3ccccc3nc12` gave a remaining activity of 97.4%.
`O=C(Nc1cccc(Nc2cc(Nc3cccc(C(F)(F)F)c3)ncn2)c1)C1CC1` gave a remaining activity of 96.7%.
`O=C1NC(=O)C(c2cn(CCCO)c3ncccc23)=C1c1cnccn1` has a remaining activity of 100%.
For `Cc1ccc(NC(=O)c2ccc(CN3CCN(C)CC3)cc2)cc1Nc1nc(-c2cccnc2)cs1`, the remaining activity was 90%.
`CCOC(=O)c1c(C)[nH]c(/C=C2\C(=O)Nc3ccccc32)c1C` has a remaining activity of 112%.
With `O=C(CCCc1ccc(-c2ccccc2F)cc1)Nc1ccc(O)cc1` the remaining activity was 111%.

Sample 4 — method: phase 2a trial; host: idiopathic pulmonary fibrosis patients
Structure (SMILES): CC(C)n1cnc(-c2ccc(F)cc2)c1-c1ncc(C(=O)Nc2ccc(N3CCN(C)CC3)cc2)[nH]1
60 mg once daily, adverse event grade 5 — “patients with coagulopathy”: 0%.
For dose not given, adverse event grade 2, all dose arms pooled: “patients with coagulopathy” read 0%.
It gave 0% for “patients with coagulopathy” (60 mg once daily, adverse event grade 3).
It gave 0% for “patients with coagulopathy” (60 mg once daily, adverse event grade 2).

Repeated from above (sample 1):
With `CCCC(C(=O)OCCN(CC)CC)(c1ccccc1)c1ccccc1` the viability was 9.14%.
`COC1=C(OC)C(=O)C(C/C=C(\C)CC/C=C(\C)CC/C=C(\C)CC/C=C(\C)CC/C=C(\C)CC/C=C(\C)CC/C=C(\C)CC/C=C(\C)CC/C=C(\C)CCC=C(C)C)=C(C)C1=O` has a viability of 104%.
